Published values gathered from unrelated publications.
Each numbered part is a random draw from the data of one study; scales do not carry over between parts. Changes are numbered by the printed parent chain.

Block 1
Target: Sal-like protein 4, full length isoform B (SALL4, Homo sapiens, UniProt Q9UJQ4-2, residues 1-616)
Technique: universal PBM
Form: double-stranded DNA, one strand shown
Medium: in vitro
Tested at: not given
Notes: 8-mer, flanks averaged, mean of replicates
Direction: higher = stronger binding
Construct (chain): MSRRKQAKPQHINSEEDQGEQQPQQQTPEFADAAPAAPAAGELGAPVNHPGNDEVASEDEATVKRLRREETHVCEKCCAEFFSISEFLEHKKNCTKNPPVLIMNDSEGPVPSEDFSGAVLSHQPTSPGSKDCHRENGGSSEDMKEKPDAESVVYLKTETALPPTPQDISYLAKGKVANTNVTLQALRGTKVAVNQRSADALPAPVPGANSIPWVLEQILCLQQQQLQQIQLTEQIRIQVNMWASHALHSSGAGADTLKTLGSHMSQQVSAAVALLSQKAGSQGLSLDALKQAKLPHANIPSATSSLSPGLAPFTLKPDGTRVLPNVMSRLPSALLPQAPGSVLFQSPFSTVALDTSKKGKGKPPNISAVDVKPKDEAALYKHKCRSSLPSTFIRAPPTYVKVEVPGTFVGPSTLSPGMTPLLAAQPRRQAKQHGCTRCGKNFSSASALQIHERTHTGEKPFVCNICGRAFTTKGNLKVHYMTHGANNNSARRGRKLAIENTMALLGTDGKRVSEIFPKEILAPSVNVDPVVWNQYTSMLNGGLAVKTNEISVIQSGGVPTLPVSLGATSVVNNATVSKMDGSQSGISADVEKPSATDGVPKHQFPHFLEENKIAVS
Oligonucleotide	E-score
TAAACGCA	0.15
CATAGATC	0.0684
GAAGATTA	0.229
ACCACGAC	-0.168
AACCTCGT	0.0865

Block 2
Target: CCND3, cyclin fold, Cln2 fusion (human)
Technique: yeast growth competition, sequencing
Medium: yeast
Notes: weak parent motif
Baseline: not given
Direction: higher = stronger binding
Starting sequence: RB1 docking peptide (human); PKPLKKLRFDIEG; partner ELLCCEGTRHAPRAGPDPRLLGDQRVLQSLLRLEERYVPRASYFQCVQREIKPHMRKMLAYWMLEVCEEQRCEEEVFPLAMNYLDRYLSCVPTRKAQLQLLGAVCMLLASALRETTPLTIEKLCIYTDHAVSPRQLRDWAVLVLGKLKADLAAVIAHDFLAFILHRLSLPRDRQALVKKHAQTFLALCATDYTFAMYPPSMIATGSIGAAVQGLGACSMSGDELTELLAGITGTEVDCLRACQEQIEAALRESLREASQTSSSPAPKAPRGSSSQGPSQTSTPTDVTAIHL
Change	normalised enrichment score
G13I	0.108
K6S	0.0913
P3W	0.168
L4R	0.0921
G13S	0.11
K2M	0.0918
P1F	0.0855
L7W	0.225
K6F	0.0642

Block 3
Target: Phosphate system positive regulatory protein PHO4, full length, GST-tagged (PHO4, Saccharomyces cerevisiae, UniProt P07270, residues 1-312)
Technique: competition protein-binding microarray
Form: double-stranded DNA, one strand shown
Medium: in vitro
Tested at: 2 µM
Notes: whole 60-bp probe, lowest competitor level
Together with: Cbf1 competitor, 0.05 µM
Direction: higher = stronger binding
Shared flanks, not repeated: … GTCTTGATTCGCTTGACGCTGCTG
Residues (chain): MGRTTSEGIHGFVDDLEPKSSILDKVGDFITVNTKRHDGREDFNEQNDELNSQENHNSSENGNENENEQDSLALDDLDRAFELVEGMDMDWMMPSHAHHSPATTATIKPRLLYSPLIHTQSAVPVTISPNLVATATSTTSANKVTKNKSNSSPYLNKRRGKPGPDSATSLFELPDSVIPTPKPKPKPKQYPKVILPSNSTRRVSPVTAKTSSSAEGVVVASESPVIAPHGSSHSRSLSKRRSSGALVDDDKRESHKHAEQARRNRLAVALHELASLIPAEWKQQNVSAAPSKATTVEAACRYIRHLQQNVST
Oligonucleotide	fluorescence intensity [a.u.]
AACATTATGGAAGTCCATGTGAATAATTCACTCAAG	5290
ACTCTGCAATTCTATCAGTAGGTGGTGCAACCGCGT	8260
AATTGATTCATATGGAACGTGACTCGTCCTCTGTAG	10500
GCAGCTCTTTTATTTCACGTGTTCCGGTTTCCCTCT	14000
CTTTCCCGATCTTGTCACTGTACTTTAGCACATTTG	4360
TCTTCTTGCGAGGCGCTCGTGGTCGAGCCGTTCGTA	9800
CCGATTTAAATGTCCCACGTAAACTTTTCGCCAATT	5640
TGCGCAACAACTTCCCACGTGTTTTTATGTCTAGAA	18100

Mixed results
Substance	target	test	test system	conditions	how to read	quantity	result
PhoQ, residues 284 288 289 292 302 303 SMMNNA	PhoP, residues 12 14 15 18 19 QWHVF (Escherichia coli, UniProt P23836)	Sort-seq, item: YFP reporter	E. coli	PhoQ-PhoP variant library, together with: 10 µM Mg2+	baseline: high Mg2+ state, higher = stronger signaling	fold induction	6

Excerpt of the above (block 1):
Oligonucleotide	E-score
AACCTCGT	0.0865
ACCACGAC	-0.168
GAAGATTA	0.229
